Published values collected from several papers.
Each numbered part is a random draw from the data of one study; scales do not carry over between parts.

Sample 1
Target: Ras GTPase-activating protein-binding protein 1, C-terminal RGG region (G3BP1, Homo sapiens, UniProt Q13283)
Chain of UniProt Q13283 (whole entry, looked up): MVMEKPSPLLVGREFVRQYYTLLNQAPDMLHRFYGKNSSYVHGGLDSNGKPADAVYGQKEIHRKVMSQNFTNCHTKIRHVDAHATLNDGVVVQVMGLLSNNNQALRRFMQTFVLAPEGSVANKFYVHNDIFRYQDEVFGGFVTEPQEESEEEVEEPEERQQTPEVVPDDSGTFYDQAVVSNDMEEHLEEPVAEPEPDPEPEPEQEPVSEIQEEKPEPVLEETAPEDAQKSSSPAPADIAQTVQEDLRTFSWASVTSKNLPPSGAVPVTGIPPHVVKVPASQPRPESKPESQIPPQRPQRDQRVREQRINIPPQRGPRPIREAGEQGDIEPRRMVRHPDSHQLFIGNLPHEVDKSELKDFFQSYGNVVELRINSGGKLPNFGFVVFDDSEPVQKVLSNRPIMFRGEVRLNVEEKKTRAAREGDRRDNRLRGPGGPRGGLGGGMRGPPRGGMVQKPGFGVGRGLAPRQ
Method: RNA Bind-n-Seq
Molecule type: RNA
Sample: in vitro
Tested at: 1 µM
Setting: whole 134-nt RNA, ends assumed
With: 150 mM KCl
Baseline: input library
Reading: higher = stronger binding
Constant ends, left off below: GGGAGUUCUACAGUCCGACGAUC … UGGAAUUCUCGGGUGUCAAGG
For `CAAGUCCUGUGCUACACAUCGUAUGUACCGAAUCGGGUUUUUGGGAAAGGGUGGGAAAGUAUUAUGUUACGCCGUUCGGAUCUGCACUUC`, the log2 enrichment was 1.51.
For `UCAAGUCCUGUGCUACACAUCGUAUGUACCGAAUCGGGGAAAGGAAAGGGAAAGGAAAGUAUUAUGUUACGCCGUUCGGAUCUGCACUUC`, the log2 enrichment was -1.71.
`UCAAGUCCUGUGCUACACAUCGUAUGUACCGAAUCGGGCCCGGCCCGGCCCGGGAAAGUAUUAUGUUACGCCGUUCGGAUCUGCACUUCC` gave a log2 enrichment of -1.54.
`CCUGUGCUACACAUCGUAUGUACCGAAUCGGGAAAAAAAGGAAAAAAAGGGAAAAAAAGGAAAGUAUUAUGUUACGCCGUUCGGAUCUGC` has a log2 enrichment of -1.87.
The log2 enrichment of `UCAAGUCCUGUGCUACACAUCGUAUGUACCGAAUCGGAAAGGGAAAGGGAAAGGAAAGUAUUAUGUUACGCCGUUCGGAUCUGCACUUCC` is reported as -1.38.
The log2 enrichment of `ACCAUGCAGGUGGGCAUCUUUGGGCAGUGGGGCAAGGGGGGGAUAGGGAGGGGGGUAACACUUUGGGAACAGGUGGUCCCAGGUCGUUUC` is reported as -0.881.
`UAACUUUAGAGGAGGAUCUGAUGGCUAUGGCAGUGGACGUGGAUUUGGGGAUGGCUAUAAUGGGUAUGGAGGAGGACCUGGAGGUGGCAA` has a log2 enrichment of -1.41.
`GUCCUGUGCUACACAUCGUAUGUACCGAAUCGGUUUUUUGGUUUUUUGGGGUUUUUUGGAAAGUAUUAUGUUACGCCGUUCGGAUCUGCA` has a log2 enrichment of -1.4.
`CCUGUGCUACACAUCGUAUGUACCGAAUCGGGUUUUUUUGGGAAAAAGGGAAAAAAAGGGAAAGUAUUAUGUUACGCCGUUCGGAUCUGC` gave a log2 enrichment of -2.21.
With `UCCUGUGCUACACAUCGUAUGUACCGAAUCGGUUUUUUUGGGUUUUUUUGGUUUUUUUGGAAAGUAUUAUGUUACGCCGUUCGGAUCUGC` the log2 enrichment was -0.466.

Sample 2
Target: Transcription factor SOX-2, HMG box (SOX2, Homo sapiens, UniProt P48431, residues 19-118)
Chain of UniProt P48431 (19-118, looked up): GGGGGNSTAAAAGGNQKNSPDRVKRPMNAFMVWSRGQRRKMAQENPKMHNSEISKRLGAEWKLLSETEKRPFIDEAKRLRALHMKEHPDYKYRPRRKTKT
Method: protein-binding microarray
Molecule type: double-stranded DNA, one strand shown
Sample: in vitro
Tested at: not given
Setting: k-mer, scored over probes, only values ≥0.25
Reading: higher = stronger binding
For `AATTTGC`, the E-score was 0.267.
For `ATTCAGA`, the E-score was 0.333.
With `AAGAATA` the E-score was 0.35.
`AACACAA` gave an E-score of 0.306.
`ACAATAA` has an E-score of 0.452.
`CAAATTC` has an E-score of 0.268.
`AAAGAAT` gave an E-score of 0.37.
`GAATAGA` has an E-score of 0.327.
The E-score of `AAATTCA` is reported as 0.371.
`ACAAATG` has an E-score of 0.268.
`TCAATAA` gave an E-score of 0.363.
With `ATTCAAG` the E-score was 0.261.
`AATTCGT` has an E-score of 0.266.
The E-score of `ACATTGA` is reported as 0.319.
For `AAGGCCG`, the E-score was 0.315.
`TAATGAA` has an E-score of 0.286.
For `CTATTTA`, the E-score was 0.315.
`TAATTAA` gave an E-score of 0.369.
For `AGAATAT`, the E-score was 0.278.
The E-score of `AATAGAC` is reported as 0.294.
For `CAATTGC`, the E-score was 0.325.
For `AGATTGA`, the E-score was 0.259.
For `ATTATCG`, the E-score was 0.295.
For `AATACAG`, the E-score was 0.284.
`ACAATTC` gave an E-score of 0.449.

Sample 3
Target: Histone acetyltransferase KAT6A, winged helix 2, GST fusion (KAT6A, Homo sapiens, UniProt Q92794, residues 85-181)
Method: protein binding microarray
Molecule type: double-stranded DNA, one strand shown
Sample: in vitro
Tested at: not given
Setting: 8-mer, flanks averaged, mean of 2 arrays, mostly near background
Baseline: not given
Reading: higher = stronger binding
Target sequence (chain): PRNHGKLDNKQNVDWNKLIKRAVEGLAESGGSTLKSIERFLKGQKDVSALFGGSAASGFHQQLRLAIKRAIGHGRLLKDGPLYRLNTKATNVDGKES
With `CTTACCGC` the E-score was 0.105.
For `CTTGTAGC`, the E-score was -0.0026.
With `TCCGCTAA` the E-score was 0.102.
For `GTACGAAA`, the E-score was 0.0646.
`CAAGATTG` gave an E-score of -0.0604.
For `ATCAACTG`, the E-score was 0.0467.
The E-score of `GCGCGCCA` is reported as 0.248.
For `ACCCACAC`, the E-score was 0.0972.
The E-score of `ATACACAT` is reported as -0.107.
`AGAACGCA` has an E-score of 0.0887.
`CCGGGGAG` has an E-score of 0.133.
`CGTGGTCC` gave an E-score of 0.0153.
With `ATTTTTGC` the E-score was -0.0264.
With `ACTACAGG` the E-score was -0.0269.
For `CAAAAGGG`, the E-score was 0.103.
The E-score of `ACGTTCGA` is reported as -0.172.
With `CAGCTCTA` the E-score was -0.223.
With `GGGTCTTA` the E-score was -0.19.
`TACGTGGA` gave an E-score of -0.274.
`CATGTCGG` gave an E-score of 0.171.
With `CTCGATGC` the E-score was 0.114.
`GGTTGCAC` has an E-score of -0.0101.
`CCGTAGGC` gave an E-score of -0.0155.
`AGATTGAG` has an E-score of 0.0493.
The E-score of `CTGTTTTA` is reported as -0.141.

Sample 4
Target: RNA binding protein fox-1 homolog 2, RRM domain, GST-SBP tag (RBFOX2, Homo sapiens, UniProt O43251-10, residues 100-194)
Method: RNA Bind-n-Seq
Molecule type: RNA
Sample: in vitro
Tested at: 365 nM
Setting: natural RNA segment, single round, ends assumed
Baseline: no-protein control
Reading: higher = stronger binding
Constant ends, left off below: GGGAGUUCUACAGUCCGACGAUC … UGGAAUUCUCGGGUGCCAA
Target sequence (chain): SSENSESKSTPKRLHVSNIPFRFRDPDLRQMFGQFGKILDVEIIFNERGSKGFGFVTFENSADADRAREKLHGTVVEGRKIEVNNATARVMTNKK
For `CCUCUGCCUGCCUCAUGCCCCUUCCCCCUGGCCUACCAAGGACAGCCCACAGCCCGCACUGCCGGCUCACUUGGGUCCUUCCUCGAUAGCUUUGGGCAGAGCCCUUGCUU`, “RBNS enrichment (R)” read 0.428.
`UGUGUGGGUUAGGGCUUUUUUCGUUGCAUGUGAUGGUUCUGUGGACAUAUGAUCCCCACAAACUGUGGGAGUGAUUGGCCAGGCCUUGUUUUGUUUGUUUGUUUGUUUGU` — result for “RBNS enrichment (R)”: 52.1.
Under “RBNS enrichment (R)”, `GGGGCCCAGCUUCCAAUAGUGUCAGAAGCAACUUGUGGCUUUGCCUUGGUUGUGAGAUGGGUACAUUCCAAAGGAGCAGCCUGGGGGAGGGGGCAGGCUCAGCCAGCCCU` is recorded as 0.322.
Under “RBNS enrichment (R)”, `UUGUCUUUUGGAGAAAAAAAACUGUACUGCUUGUUCAAGAGGGCUGUGAUUAAAAUCUUUAAGCAUUUGUUCCUGCCAAGGUAGUUUUCUUGCAUUUUGCUCUCCAUUCA` is recorded as 0.715.
`UUAUCUGUAGAGUACCGGAUAGUGUUUGCUUUUUCCUCCCAAGCUGACAGAAGCUGGGCAUCAGUGAUCUGUUGUGUUGGAUUAAUAGGUCCUUCCCCAAAUGGGACCUG` — result for “RBNS enrichment (R)”: 0.484.
`AGAACAGCACAGUGAAGAGUGAAAUGGAGAAAACUCUCACGGUGAAGCAGCUGUUGGAACUCCUGGUAUUAAUGGAGCCAGAGUGACAUGCAUCCUUCGUCUGUCUCAUC` — result for “RBNS enrichment (R)”: 1.53.
Under “RBNS enrichment (R)”, `AGCCACCGUCCUCCGUGACACACGGCCCCCUUCCUCCUGUCCCCACACUCCCAGGAGAAACUCCCGGUGUGUUUCUGACCCUUUCAGCCCCAUUAAAGCUCCUGAGCUCU` is recorded as 0.514.
Under “RBNS enrichment (R)”, `CUUCCUCUUUCCCAGCCCUAUUUCUGGGAUCCCAGAGGGGCAGGGGUGGUGGAGGCGGUGCCGGGACUUGGCUGAGUGCAGUUUGAGCUCUAGGCUUGUCUCCAUGGGAA` is recorded as 0.239.
`UAUAAUAAACAGCCGGUGGUUAUGGUGUGGUGUGAGCAGGCCCCCGGAUCACCAGCCCUCUGCUGGUGGUCAUAAAGCACACACAGUUUGUACUUGCUUCCUCUCGACGC` — result for “RBNS enrichment (R)”: 0.267.
`UUAGCUAGGCGAGUACAGACGGGGCCUGGGAGGGGGCAGAGAUGUUCCCCAGGCCCUGCCUGUGGUUCCUGCCUGGGCCUUGGCUGCUGCUGUGUGAGAGCUGCAUGUGA` — result for “RBNS enrichment (R)”: 2.56.
`UUUCACUACCACUGUUAUGUCACUGGGUAAAAGCCUCAAACUGUUAAAUAUAUGGGAGACUGAUUAUAAAGAAUAAAGAAUAUUUGCAUUUACUUAUGCAACUACUAAUU` — result for “RBNS enrichment (R)”: 0.559.
`AACUCAAAUACUACUUUUCAAAAGAGACCGAAGGAAGAGGAAUGGGAUCCAGAAUAUACCCCAAAGAGCAAGAAGUACUUCUUGCAUGACGACAGAGAUGAUGGUGUGGA` — result for “RBNS enrichment (R)”: 0.813.

Excerpt of the above (sample 3):
`AGAACGCA` has an E-score of 0.0887.
`CCGGGGAG` has an E-score of 0.133.
`CGTGGTCC` gave an E-score of 0.0153.
With `ATTTTTGC` the E-score was -0.0264.
With `ACTACAGG` the E-score was -0.0269.
For `CAAAAGGG`, the E-score was 0.103.
The E-score of `ACGTTCGA` is reported as -0.172.
With `CAGCTCTA` the E-score was -0.223.
With `GGGTCTTA` the E-score was -0.19.
`TACGTGGA` gave an E-score of -0.274.
`CATGTCGG` gave an E-score of 0.171.
